Results from different studies.
Each numbered part is a random draw from the data of one study; scales do not carry over between parts. Substitutions count along the parent as printed.

Study 1
Target: UDP-N-acetylglucosamine--peptide N-acetylglucosaminyltransferase 110 kDa subunit (OGT, Homo sapiens, UniProt O15294)
Observed: phage display binding
Method: phage display panning NGS
Molecule type: peptide
Setting: panning round 3
Relative to: OGT-panned over input library
Target sequence (O15294 1-1046): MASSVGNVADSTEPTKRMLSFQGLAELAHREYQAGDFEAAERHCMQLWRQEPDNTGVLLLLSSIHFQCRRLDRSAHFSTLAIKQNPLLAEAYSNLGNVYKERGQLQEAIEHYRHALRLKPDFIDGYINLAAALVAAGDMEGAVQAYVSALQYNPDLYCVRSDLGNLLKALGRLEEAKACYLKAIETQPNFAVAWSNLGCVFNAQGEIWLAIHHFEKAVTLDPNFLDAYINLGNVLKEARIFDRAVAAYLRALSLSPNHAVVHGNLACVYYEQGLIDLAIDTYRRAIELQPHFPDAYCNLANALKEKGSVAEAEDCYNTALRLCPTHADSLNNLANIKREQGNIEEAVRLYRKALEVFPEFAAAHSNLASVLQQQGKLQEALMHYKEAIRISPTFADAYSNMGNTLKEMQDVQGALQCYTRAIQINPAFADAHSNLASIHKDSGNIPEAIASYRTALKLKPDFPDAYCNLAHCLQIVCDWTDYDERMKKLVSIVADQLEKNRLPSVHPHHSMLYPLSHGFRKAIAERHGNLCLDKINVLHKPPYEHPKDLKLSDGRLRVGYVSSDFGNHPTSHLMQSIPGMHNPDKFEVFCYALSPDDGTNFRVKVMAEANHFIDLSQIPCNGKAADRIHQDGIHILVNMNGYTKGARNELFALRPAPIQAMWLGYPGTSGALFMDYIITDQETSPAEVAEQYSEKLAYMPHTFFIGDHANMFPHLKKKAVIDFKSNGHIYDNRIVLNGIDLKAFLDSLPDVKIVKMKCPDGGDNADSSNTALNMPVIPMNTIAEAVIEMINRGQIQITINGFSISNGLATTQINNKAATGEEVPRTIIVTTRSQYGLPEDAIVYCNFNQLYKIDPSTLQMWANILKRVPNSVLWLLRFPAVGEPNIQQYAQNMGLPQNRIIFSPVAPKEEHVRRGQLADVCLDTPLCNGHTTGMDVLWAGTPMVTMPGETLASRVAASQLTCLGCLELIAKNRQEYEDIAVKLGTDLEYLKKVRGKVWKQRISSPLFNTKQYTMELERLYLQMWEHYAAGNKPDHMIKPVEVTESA
With `VKTYEPFYLIDMNRQ` the fold enrichment was 1.62.
`DMYEYRYKPHYVIQI` gave a fold enrichment of 2.95.
The fold enrichment of `SDDLYAPQYQIFFNA` is reported as 4.85.
`DFLYMPKYQMVFDFT` has a fold enrichment of 3.8.
`TSFAPEYIIDYIRPV` gave a fold enrichment of 3.12.
For `YFGRVTFPPKYQIVF`, the fold enrichment was 4.4.
`YYLPAYQIAPKYVQD` has a fold enrichment of 2.21.
With `NFLPQYQITAGAYET` the fold enrichment was 4.17.

Study 2
Target: CCNB2, cyclin fold, Cln2 fusion (human)
Method: yeast growth competition, sequencing
Matrix: yeast
Setting: strong parent motif
Relative to: not given
Reading: higher = stronger binding
Starting sequence: viral docking peptide; YKVKRRLVFGADD
Under “normalised enrichment score”, `YKVKRRKVFGADD [L7K]` is recorded as 0.859.
`YKVKRRLVFGAKD [D12K]`: “normalised enrichment score” 0.452.
Under “normalised enrichment score”, `YKVKRRLVKGADD [F9K]` is recorded as 0.488.
`YKQKRRLVFGADD [V3Q]`: “normalised enrichment score” 0.854.
For `YKVKRRLMFGADD [V8M]`, “normalised enrichment score” read 1.43.
`YKVKRRLSFGADD [V8S]`: “normalised enrichment score” 3.81.
Under “normalised enrichment score”, `YKVKARAVFGADD [R5A L7A]` is recorded as 0.193.
`YKIKRRLVFGADD [V3I]` — result for “normalised enrichment score”: 2.1.
`YKVIRRLVFGADD [K4I]`: “normalised enrichment score” 0.105.
For `YKVKRRLVFGAPD [D12P]`, “normalised enrichment score” read 1.39.
For `YKKKRRLVFGADD [V3K]`, “normalised enrichment score” read 0.653.
For `AKVKRRLVFGADD [Y1A]`, “normalised enrichment score” read 1.36.
`YKVKVRLVFGADD [R5V]`: “normalised enrichment score” 0.993.
For `YKVKRRLVFVADD [G10V]`, “normalised enrichment score” read 1.87.
`YKHKRRLVFGADD [V3H]`: “normalised enrichment score” 0.148.
`YKVKRRLVFGAAD [D12A]`: “normalised enrichment score” 1.21.
Under “normalised enrichment score”, `YKVKRKLVFGADD [R6K]` is recorded as 1.78.
For `YKVKRRLHFGADD [V8H]`, “normalised enrichment score” read 1.32.
`YKVKRRLVFGAQD [D12Q]`: “normalised enrichment score” 0.961.
`YKVKKRLVLGADD [R5K F9L]`: “normalised enrichment score” 0.402.
`YKVKRRLVQGADD [F9Q]`: “normalised enrichment score” 0.863.
Under “normalised enrichment score”, `YKVKRRLVNGADD [F9N]` is recorded as 0.773.
For `YNVKRRLVFGADD [K2N]`, “normalised enrichment score” read 2.36.
`YKVHRRLVFGADD [K4H]`: “normalised enrichment score” 0.673.
`YKVKWRLVFGADD [R5W]`: “normalised enrichment score” 0.19.

Study 3
Target: RNA binding protein fox-1 homolog 2, RRM domain, GST-SBP tag (RBFOX2, Homo sapiens, UniProt O43251-10, residues 100-194)
Method: RNA Bind-n-Seq
Molecule type: RNA
Matrix: in vitro
Concentration: 365 nM
Setting: natural RNA segment, single round, ends assumed
Relative to: no-protein control
Reading: higher = stronger binding
Residues (chain): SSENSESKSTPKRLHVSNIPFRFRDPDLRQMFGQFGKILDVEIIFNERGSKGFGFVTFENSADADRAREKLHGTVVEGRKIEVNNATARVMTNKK
`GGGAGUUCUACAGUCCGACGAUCGAAGCAGUGAGCCGCAUCUUCUCCAUCUGGCAGGGUGGGAUGGAGGAGAAGAAUUUUCAGACCCCAGCGGCUGAGUCAUGAUCUCCCUGCCGCCUCAAUGUGGUUGCAAGUGGAAUUCUCGGGUGCCAA`: “RBNS enrichment (R)” 0.737.
`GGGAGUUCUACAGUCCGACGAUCUUGCAACACAUUCAUUUGGAUAAGUUGUGAUUUGACGACUGAUUUAAAUAAAAUAUUUGCUUCACUUAGAUUUGCUGGUUUUAUUAGAUACCAGGAAGCCUGGGACAUAUUGGAAUUCUCGGGUGCCAA` — result for “RBNS enrichment (R)”: 0.281.
For `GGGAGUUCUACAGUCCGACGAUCUUAUAUCAUGACAUACAAAUGGAUUUACGUAUUUGACUGAAAUGAAAGUUCCACUAAACGGUAUUUGCUCUUGUGAUAUGUGGCACAUUGUGAUAUUUUCUUAGUCUGUUUGGAAUUCUCGGGUGCCAA`, “RBNS enrichment (R)” read 0.608.
For `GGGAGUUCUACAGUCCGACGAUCGAGCACUUUCCUAACUACUGCAGACAGACUGACUGCCAAGGCACACUGUGCUCACGACUGGAAAGUAGCCUUUUUCUUCUAUCAAUGUUUACCAUAAAGUUCCUUUCUCAUGGAAUUCUCGGGUGCCAA`, “RBNS enrichment (R)” read 0.327.
For `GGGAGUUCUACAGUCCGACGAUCCUGGUGCCUGGCCUCUGCACUGUCUGGAGCAUGAUCAGAAUCCACGGUGUAUCCUGGCUUUAGGGGAACCAGGUUCAAGCAGGAAAGGGAUGGACACCAAGAGGUCUUCCUGGAAUUCUCGGGUGCCAA`, “RBNS enrichment (R)” read 13.4.
Under “RBNS enrichment (R)”, `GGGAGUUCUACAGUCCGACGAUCGUAUUUAUGAAUAUAUUGCUGUAAUUUCUGACAACAUCCAAAAAAUAAAAUCUUCCUAAAUUAUGUUAAGAGGAAAAUCUUUUUUAUGAUAUAAAACAAAGCCAAACAAAUGGAAUUCUCGGGUGCCAA` is recorded as 0.466.
Under “RBNS enrichment (R)”, `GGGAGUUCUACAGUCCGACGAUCAAUAGAUUCUUACCCAAUGCCACUGUCAGUAUCCCAGGUAGUGAAAUUCUUAAAGUGGUGGGGUAUUAGUACUAGUAGUUUUAUGUUGUCUAAUUCUAGCCAAGCUUCUGUGGAAUUCUCGGGUGCCAA` is recorded as 0.329.
Under “RBNS enrichment (R)”, `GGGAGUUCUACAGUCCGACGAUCUUCCGAGUUUCCAGCUAGUCCUAGAGUUCUAUAUUUCUACAUAGUUGAAUUAUUUUAUCAUGCUGUUGCUGGGGAAUAUGACUAACCCUUUUGAAGCUACUAAUUUUAUGUGGAAUUCUCGGGUGCCAA` is recorded as 0.45.

Study 4
Target: inorganic phosphate, free oxyanion
Method: microfluidic competitive inhibition
Matrix: in vitro, cell-free expressed
Concentration: not given
Setting: derived from inhibition constants, unchanged parent 615000 nM
Reading: lower = stronger binding
Starting sequence: PafA, mature enzyme, eGFP fusion (Elizabethkingia meningoseptica, UniProt Q9KJX5); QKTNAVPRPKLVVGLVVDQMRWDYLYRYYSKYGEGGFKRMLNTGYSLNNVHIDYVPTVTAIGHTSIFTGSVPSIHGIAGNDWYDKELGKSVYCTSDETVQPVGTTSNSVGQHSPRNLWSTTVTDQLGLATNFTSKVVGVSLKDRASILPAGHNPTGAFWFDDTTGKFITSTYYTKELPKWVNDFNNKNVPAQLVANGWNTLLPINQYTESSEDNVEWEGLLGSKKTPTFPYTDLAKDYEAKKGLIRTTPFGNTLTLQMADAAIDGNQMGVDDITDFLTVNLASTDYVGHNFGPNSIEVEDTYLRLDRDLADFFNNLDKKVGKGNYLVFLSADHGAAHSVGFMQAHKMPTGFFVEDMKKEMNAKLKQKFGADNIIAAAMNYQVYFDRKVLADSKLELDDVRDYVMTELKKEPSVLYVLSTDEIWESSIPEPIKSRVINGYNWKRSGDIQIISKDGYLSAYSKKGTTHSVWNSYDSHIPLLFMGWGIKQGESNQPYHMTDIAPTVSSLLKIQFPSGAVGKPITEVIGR
For `L244G`, “phosphate dissociation constant” read 398 µM.
For `T278G`, “phosphate dissociation constant” read 490 µM.
`W469V`: “phosphate dissociation constant” 302 µM.
For `H289G`, “phosphate dissociation constant” read 828 µM.
Under “phosphate dissociation constant”, `I296V` is recorded as 656 µM.
`G33A` — result for “phosphate dissociation constant”: 630 µM.
Under “phosphate dissociation constant”, `F341V` is recorded as 510 µM.
`G463A`: “phosphate dissociation constant” 305 µM.
For `K365G`, “phosphate dissociation constant” read 724 µM.
Under “phosphate dissociation constant”, `A376G` is recorded as 485 µM.
For `S467G`, “phosphate dissociation constant” read 385 µM.
Under “phosphate dissociation constant”, `A310G` is recorded as 548 µM.
`G103V`: “phosphate dissociation constant” 571 µM.
`L128G` — result for “phosphate dissociation constant”: 386 µM.
`L394V` — result for “phosphate dissociation constant”: 637 µM.
For `H475V`, “phosphate dissociation constant” read 506 µM.
`I263G`: “phosphate dissociation constant” 391 µM.
`F132V`: “phosphate dissociation constant” 510 µM.
`F167G` — result for “phosphate dissociation constant”: 618 µM.
`T164V`: “phosphate dissociation constant” 576 µM.
Under “phosphate dissociation constant”, `G165A` is recorded as 524 µM.
`K357G`: “phosphate dissociation constant” 606 µM.
`T278V`: “phosphate dissociation constant” 576 µM.
`E212V` — result for “phosphate dissociation constant”: 573 µM.
`V55A`: “phosphate dissociation constant” 550 µM.

A few entries again (study 2):
For `YKVKRRLHFGADD [V8H]`, “normalised enrichment score” read 1.32.
`YKVKRRLVFGAQD [D12Q]`: “normalised enrichment score” 0.961.
`YKVKKRLVLGADD [R5K F9L]`: “normalised enrichment score” 0.402.
`YKVKRRLVQGADD [F9Q]`: “normalised enrichment score” 0.863.
Under “normalised enrichment score”, `YKVKRRLVNGADD [F9N]` is recorded as 0.773.
For `YNVKRRLVFGADD [K2N]`, “normalised enrichment score” read 2.36.
`YKVHRRLVFGADD [K4H]`: “normalised enrichment score” 0.673.
`YKVKWRLVFGADD [R5W]`: “normalised enrichment score” 0.19.
